# Measurements collected from several papers.
# Values joined by “and” are separate records of one study, mostly repeats; a detail may differ. ± gives the spread as reported.
SMILES,assay,system,setting,how to read,measurement,result
C[C@@H]1CN(c2c(F)c(N)c3c(=O)c(C(=O)O)cn(C4CC4)c3c2F)C[C@H](C)N1,,"male Hartley guinea pigs, anaesthetized","intravenous, 10 mg/kg over 10 min, after infusion",,mean blood pressure,31 ± 0.1 mmHg
Cn1c(C(F)(F)F)cc(=O)n(-c2cc(Oc3cccnc3OCC(=O)O)c(Cl)cc2F)c1=O,,"beagle dog, male, plasma","oral capsule, 100 mg/kg/day epyrifenacil, day 1, 90-day study",,Tmax,5.5 h
Cl.[2H]C([2H])([2H])CC(=O)c1cnc(NC(=O)C2CC2)cc1Nc1cccc(-c2ncn(C([2H])([2H])[2H])n2)c1OC,geometric mean,human,"10 mg once daily, day 7, fasted, liquid, multiple dose",,CL/F,10.9 L/h
COc1ccc(C[C@@H](C)[C@@H](C)Cc2ccc(OC)c(OC)c2)cc1OC,,"beagle dog male, plasma","oral, 100 mg/kg/day, day 1, median",,Tmax,2 h
COc1cc2c3cc1Oc1c(OC)c(OC)cc4c1[C@@H](Cc1ccc(O)c(c1)Oc1ccc(cc1)C[C@@H]3N(C)CC2)N(C)CC4,,"mouse plasma, K3EDTA","4 h, 25-26 °C, room temperature",,remaining compound,92%
C[C@H]1CNC(=O)c2cnn3ccc(nc23)N[C@H](C)c2cc(F)ccc2O1,,"Balb/c nude mice, female, brain","oral, 75 mg/kg twice daily, 1 h, steady state",,unbound concentration,4.2 ± 0.9 nM
COc1cc2c3c(n(CCCN4CCOCC4)c(=O)c2cc1OC)-c1cc2c(cc1C3=O)OCO2,,"beagle dog, male, plasma","intravenous infusion, 50 mg/m^2, 1 h infusion, vehicle 1",,CL,41.1 ± 25 L/h/m²
CCC(CC)C(=O)Oc1cccc(C(O)CCN)c1.O=CO (stereo not drawn),scotopic ERG,BALB/cJ mice,"intraperitoneal, 10 mg/kg, 2 h dark adaptation, added: 10,000 lx photobleach, 10 min",,ERG a-wave amplitude,11 µV and 48 µV and 18 µV and 19 µV and 46 µV and 54 µV
Cc1cc(C(=O)NC(C)(C)COc2cccc3c2C(N)=NS(=O)(=O)N3)cc(C)n1,LC-MS metabolite profiling,"Sprague-Dawley rat, both sexes, plasma","oral, 100 mg/kg of parent drug, 8 (unit not given)",higher = more metabolite,plasma peak area,88400 a.u.
C[C@@H](N)C1CCN(S(=O)(=O)c2cccc3cnccc23)CC1,,healthy volunteers,"250 mg, fasted",,participants with orthostatic hypotension,16.7%
O=C(Nc1nc2cccc(-c3ccc(CN4CCS(=O)(=O)CC4)cc3)n2n1)C1CC1,refers to: non-infective cystitis,rheumatoid arthritis patients,"oral, 150 mg once daily, 4 weeks, any relatedness",,treatment-emergent adverse events,0%
N#Cc1ccc2c(c1)[C@H]1CCCN(C(=O)c3ccc4[nH]cnc4c3)[C@H]1C2,,"human, female","80 mg, day 15",,DHEA-S level,10.5 µmol/L
CC(C)n1nc(-c2ccc3oc(N)nc3c2)c2c(N)ncnc21,,"human, plasma","oral, 3 mg once daily, cycle 1 day 15",,AUC(0-last),253 ng·h/mL
CN[C@@H]1COc2c(S(=O)(=O)NC(=O)Nc3c4c(cc5c3CCC5)CCC4)cnn2C1,,"human, serum","oral, 900 mg twice daily, day 23, added: midazolam",,ALT,335 U/L
CNC(=O)c1ccc(-c2cnc3ncc(Cc4ccc5ncccc5c4)n3n2)cc1F,refers to: Pruritus,hepatocellular carcinoma patients,"oral, 600 mg twice daily, expansion cohort, grade 3-4",,patients with adverse event,0%
C=CC(=O)N(C)CCOc1c(N)ncnc1-c1cc(F)cc(NC(=O)c2ccc(C3CC3)cc2F)c1C,,"human, whole blood","oral, 15 mg, single ascending dose",,mean residence time,0.98 h
CC(C)(C)NCC(O)c1cc(O)cc(O)c1 (stereo not drawn),equilibrium dialysis,"dog, plasma",,,fraction unbound,0.9
Cc1nc(-c2ccc(OCC(C)C)c(C#N)c2)sc1C(=O)O,,healthy Chinese subjects,"oral, 40 mg, fed",,subjects with haemoglobin decreased,5%
Cc1cc(Nc2cc3ncccc3c(N[C@@H]3C[C@H]4CC[C@@H](C3)N4CCC#N)n2)n[nH]1,,healthy human subjects,"oral, 300 mg, 14 days, multiple ascending dose",,pruritus incidence,17%
C=CC(=O)N1CCC(c2ccc(C(N)=O)c(-c3ccc(Oc4ccccc4)cc3)n2)CC1,serious adverse event Endophthalmitis,patients with relapsed/refractory MCL,oral,,incidence,0.9%
CN1CCN=C1c1ccc(NC(=O)c2ccc(C(=O)Nc3ccc(C4=NCCN4C)cc3)cc2)cc1,,sheep erythrocytes,"1 h, pH 7.5",,maximum haemolysis,2.2%
CC/C(=C(\c1ccccc1)c1ccc(OCCN(C)C)cc1)c1ccccc1,,"male Hartley guinea pigs, anaesthetized","intravenous, 3 mg/kg over 10 min, after infusion",,mean blood pressure,35 ± 0.2 mmHg
O=C(O)CCCOc1ccc([18F])cc1-c1cc(-c2ccccc2C(F)(F)F)n(-c2ccccc2)n1,gamma counting,"male ddY mice, pancreas","intravenous, 2.1 MBq, 30 min",,radioactivity uptake,0.25 ± 0.03 SUV
Cc1ccc([C@@H]2O[C@H](CO)[C@@H](O)[C@H](O)[C@H]2O)cc1Cc1ccc(-c2ccc(F)cc2)s1,,Japanese type 2 diabetes patients,"400 mg, day 15, 24 h urine collection",baseline: baseline,urinary sodium excretion change,22.6 mEq
O=C(CCCN1CCC(O)(c2ccc(Cl)cc2)CC1)c1ccc(F)cc1,,"male Hartley guinea pigs, anaesthetized","intravenous, 1 mg/kg over 10 min, after infusion",,mean blood pressure,21 ± 0.2 mmHg
COc1ccc2ccc(C(=N)N)cc2c1-c1cnn(C(C)C)c1,,,,,pKa,11
Cc1cc(-c2nccc3c2ccn3CC(=O)Nc2ccc(-c3cnccn3)cn2)ccn1,,human,"SAD part, single 7 mg dose",,subjects with any grade 2 TEAE,0%
Cc1c(Br)cc(NC(=O)C(c2ccccc2)S(=O)(=O)O)cc1Br (stereo not drawn),,"CD-1 mice, whole blood","oral, 10 mg/kg",,unbound Cmax,< 6 nM
COc1cccc(OC)c1-c1cc(C(=O)NC2(C(=O)O)C3CC4CC(C3)CC2C4)nn1-c1ccc(C(=O)N(C)CCCN(C)CCCN(C)C(=O)CN2CCN(CC(=O)[O-])CCN(CC(=O)[O-])CCN(CC(=O)[O-])CC2)cc1C(C)C.[177Lu+3] (stereo not drawn),,"mouse, HT-29 xenograft, HT-29 tumour",4 h post injection,,tissue uptake,20.8 %ID/g
C=CC(=O)N1CCC(Oc2cc3c(Nc4ccc(Cl)c(Cl)c4F)ncnc3cc2OC)CC1,,"male Sprague-Dawley rats, plasma","oral, 2 mg/kg, added: schisandrin B pretreatment 20 mg/kg daily 1 week",,CL/F,5.83 ± 1.17 mL/min/kg
O=C1Cc2cc(CCN3CCN(c4nsc5ccccc45)CC3)c(Cl)cc2N1,,"male Hartley guinea pigs, anaesthetized","intravenous, 0.3 mg/kg over 10 min, after infusion",,mean blood pressure,25 ± 0.4 mmHg
O=C(O)CNC(=O)c1ncc(-c2ccc(Cl)cc2)cc1O,,,,,pKa (acidic),3.3
CCN1/C(=C/C(C)=O)Sc2ccc(F)cc21,,cynomolgus monkey,"oral, 30 mg/kg, 0.5 h post-dose",,mean blood pressure,87 ± 6 mmHg
CCN(CCO)CCCC(C)Nc1ccnc2cc(Cl)ccc12 (stereo not drawn),,human patient,"400 mg, steady state",,CLss/F,11.2 L/h and 13.2 L/h and 14.6 L/h and 11.8 L/h and 10.2 L/h
N=C(N)NCCNC(=O)C1(Nc2ccccc2)CCN(Cc2ccccc2)CC1,,"Sprague-Dawley rats (male), plasma","intravenous, 2.5 mg/kg",,C0,17400 ± 9070 ng/mL
Cc1c(Cl)c(C)[n+]([O-])c(Cl)c1-c1noc(-c2cc(O)c(O)c([N+](=O)[O-])c2)n1,refers to: Hyperhidrosis,healthy Caucasian subjects,"oral, 25 mg, 4 days",,adverse drug reaction incidence,0%
CC(C)n1c(Nc2cccnc2)nc2cnc(Nc3ccc(N4CCN(C)CC4)cc3)nc21,refers to: diastolic blood pressure increased,healthy male subjects,"oral, 100 mg, study, added: gemfibrozil",,subjects with adverse event,7.1%
CCn1c(=O)c(-c2cc(NC(=O)Nc3ccccc3)c(F)cc2Br)cc2cnc(NC)cc21,refers to: investigations,"healthy human, matched to mild hepatic impairment","oral, 50 mg single dose",,participants with grade ≥ 3 TEAE,12.5%
C=CC(=O)Nc1cc(Nc2nccc(-c3cn(C)c4ccccc34)n2)c(OC)cc1N(C)CCN(C)C,,human patients,"oral, cycle 3 day 1, mean, added: chemotherapy",,CLss/F,14.8 L/h
COCCCNC(=N)c1ccc(NC(=O)c2ccc(C(=O)Nc3ccc(C(=N)NCCCOC)cc3)cc2)cc1,,sheep erythrocytes,"1 h, pH 7.5",,maximum haemolysis,40%
O=C(c1cccnc1-c1ccncc1)N1CCC(O)(Cc2ccccc2)CC1,,"healthy Japanese adults, plasma","oral, 100 mg twice daily, day 7",,AUClast/dose,2.24 ng·h/mL/mg
Cc1cc(C)cc(C(=O)c2c(C(C)C)c(=O)[nH]c(=O)n2Cc2ccnc(N)c2)c1,"HPLC-DAD, one-compartment model","rat Sprague-Dawley, male, plasma","intravenous bolus, 20 mg/kg",,C0,202 ± 182 ng/mL
CNC(=O)c1ccc(-c2cnc3ncc(Cc4ccc5ncccc5c4)n3n2)cc1F,,healthy human subjects,"oral, 400 mg, grade 3, all causality, added: rifampicin 600 mg/day",,subjects with adverse events,3.8%
COc1ccc(-c2c(C)[nH]c3cc(OC)c(Cl)cc3c2=O)cc1,,PAMPA,pH 7.4,,Papp,97 ×10⁻⁶ cm/s
CCC(=O)N(CCC(c1ccc2c(c1)OCO2)c1ccccc1OC)Cc1ccccc1 (stereo not drawn),,"mouse, blood","i.p., 60 mg/kg twice daily, 2 weeks",,potassium,4.17 mEq/L

# A few entries again:
SMILES,assay,system,setting,how to read,measurement,result
CCN1/C(=C/C(C)=O)Sc2ccc(F)cc21,,cynomolgus monkey,"oral, 30 mg/kg, 0.5 h post-dose",,mean blood pressure,87 ± 6 mmHg
CCN(CCO)CCCC(C)Nc1ccnc2cc(Cl)ccc12 (stereo not drawn),,human patient,"400 mg, steady state",,CLss/F,11.2 L/h and 13.2 L/h and 14.6 L/h and 11.8 L/h and 10.2 L/h
N=C(N)NCCNC(=O)C1(Nc2ccccc2)CCN(Cc2ccccc2)CC1,,"Sprague-Dawley rats (male), plasma","intravenous, 2.5 mg/kg",,C0,17400 ± 9070 ng/mL
Cc1c(Cl)c(C)[n+]([O-])c(Cl)c1-c1noc(-c2cc(O)c(O)c([N+](=O)[O-])c2)n1,refers to: Hyperhidrosis,healthy Caucasian subjects,"oral, 25 mg, 4 days",,adverse drug reaction incidence,0%
